# Measurements gathered from unrelated publications.
# Numbered parts are unrelated; each lists some results of a single study. Substitutions count along the parent as printed.

# Series 1
# Target: ABI1, truncated, D143A, DHFR fusion (Arabidopsis thaliana)
# Technique: DHFR PCA, deep sequencing
# Medium: yeast
# Setting: methotrexate growth selection, single substitutions
# Added: (+)-ABA 58 µM
# Baseline: wild-type fitted maximum
# Direction: higher = stronger binding
# Parent: PYL1, truncated, DHFR fusion (Arabidopsis thaliana); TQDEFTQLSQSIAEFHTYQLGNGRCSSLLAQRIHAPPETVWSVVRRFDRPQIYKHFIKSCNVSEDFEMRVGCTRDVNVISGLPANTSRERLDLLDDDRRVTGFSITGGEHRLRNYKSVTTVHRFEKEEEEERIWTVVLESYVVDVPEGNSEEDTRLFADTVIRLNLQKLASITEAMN; partner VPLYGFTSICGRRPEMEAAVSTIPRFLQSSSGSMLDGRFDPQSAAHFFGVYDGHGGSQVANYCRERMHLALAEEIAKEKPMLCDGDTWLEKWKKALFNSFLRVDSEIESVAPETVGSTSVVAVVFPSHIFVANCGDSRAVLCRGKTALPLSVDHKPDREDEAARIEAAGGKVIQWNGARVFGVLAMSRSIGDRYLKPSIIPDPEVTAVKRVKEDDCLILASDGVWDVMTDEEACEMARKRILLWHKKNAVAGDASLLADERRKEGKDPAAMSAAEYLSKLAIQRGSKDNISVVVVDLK
Substitution,relative binding score
Q2T,86.3%
P50A,20.4%
G81L,-10.2%
T135N,-9.15%
I57Q,7.67%
E89P,-5.32%
E4S,79%
L169T,0.773%
A175W,66.9%
L8C,73.4%
R98C,60.7%
P36I,46.3%
G102Y,-3.5%
L164P,7.33%
S11I,77.5%
Q31D,-13.2%
T1N,87.4%
H34Y,86.9%
E125N,96.6%
G102N,-4.58%
E151W,70.7%
E152F,72.3%
S63G,90.6%
E129I,87.7%
E38R,48.3%

# Series 2
# Target: Hepatocyte nuclear factor 3-alpha (Foxa1, Mus musculus, UniProt P35582, residues 1-468, full length assumed)
# Sequence of UniProt P35582 (whole entry, looked up): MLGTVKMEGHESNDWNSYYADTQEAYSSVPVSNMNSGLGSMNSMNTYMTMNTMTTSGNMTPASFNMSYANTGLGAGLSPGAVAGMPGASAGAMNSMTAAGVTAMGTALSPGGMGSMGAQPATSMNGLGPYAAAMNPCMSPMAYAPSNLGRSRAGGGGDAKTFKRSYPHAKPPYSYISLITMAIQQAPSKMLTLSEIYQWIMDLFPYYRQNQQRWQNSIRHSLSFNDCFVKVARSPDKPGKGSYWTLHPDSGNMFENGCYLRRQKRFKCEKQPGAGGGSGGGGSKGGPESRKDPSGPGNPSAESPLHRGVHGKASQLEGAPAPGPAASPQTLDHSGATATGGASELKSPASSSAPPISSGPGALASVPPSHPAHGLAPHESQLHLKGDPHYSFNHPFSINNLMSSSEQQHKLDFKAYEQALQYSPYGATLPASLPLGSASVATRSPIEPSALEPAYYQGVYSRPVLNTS
# Technique: EMSA with sequencing
# Molecule type: double-stranded DNA, one strand shown
# Medium: in vitro
# Concentration: 10 and 20 nM
# Setting: whole designed probe, mean of two concentrations, ends assumed
# Baseline: negative control set to 0
# Direction: higher = stronger binding
Strand,normalised bound fraction [ratio]
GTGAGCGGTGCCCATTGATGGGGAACTTACCACATTTCTTACATGCATAGGGTTTCTCTCCAGTATGAGTTCTTTCATGTTCACGAAGATAACTTGAATAATTGAAGGCTTTATCACAAAGATTACATTTATATGTTTTCTCTCCAGTGTAAGTGCTCTGAGGCATTTGAAATACACTAGGAAAATCAAAAGGCTTCTCATACACTGGACCCTTATAAGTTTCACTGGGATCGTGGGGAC,-0.0289
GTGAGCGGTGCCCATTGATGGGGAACATCTTCCCCCTCTTCCTTGCCCCACCAGCTCACCTTCCCGGGTTATTTGCAGATAGGAAAATAAATAAAGCCGGCATTCGTTAACCCTCTTCAGATGAATCATGCTGTTTGCTCTGGATCTAACATGGTCCTTTGGCGACGCCAGGCTCCGGGAGAGCAAAGCACCGTGTCAGGGCCATGATCCGGGGTGGCCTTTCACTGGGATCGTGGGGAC,0.358
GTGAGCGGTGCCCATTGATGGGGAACAAAGTAATATAGCAGAATGACTTTTATTATAGATGATAATTTATGAAAAATGTAGCCAACGGAATTGATGTCAAACTTTTATCCACAAGTGCAAATTACTTTAGTATTGCTCACTATTTACCAAGGTTTGTTACAGCAGTAGTCACTATCTCAGTTGGCATTCGGCCAGATTATATTTTTTAAAGTGGCATTGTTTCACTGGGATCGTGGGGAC,0.0684
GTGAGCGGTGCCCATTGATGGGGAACATGCATACATCTACCACATGTATTAATAAGCATATATTTATTATAAAGCCAATTGAGATTTTATATCTCAGACATAAATTTCATTATTTTTATGTTTACTTTGAAAGATATAGTAATATTTTTGAAAAACTATTAACTAGTTGAATCATAAAAATGGAAATAAATGTAAAATTTTTTTGTTGTTAAACTAGTTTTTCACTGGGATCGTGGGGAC,0.44
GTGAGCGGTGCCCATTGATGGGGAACTACTTATGGGTTGATTTCTGGAATCATTGCTTTATTTGGTGGTATTCACTAAGTAGGTCACTTGCATTCATTTACATAGGAAAGCTGCTTGTGTAATTTGCAAGGTCCCTTATGAGTCAGCATTACATGTCAGCATAAAGGGAGAAAACACGAAGCATTTTACAAATAATACTCTTTAGGTGAACACATTTTGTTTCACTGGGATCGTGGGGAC,0.113
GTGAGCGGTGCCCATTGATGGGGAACTGTACCTAATTTTTTAAAATCATATTTATAAACTAAAATAGATACTCTAGGATATGTCAAGGAGCTAAGGAAATCATTTAGTTTACTATTTGGATGTTTACACTGAATCTTCAAAGTGTTACATTTTCTTAAAAGAAAATGTTAAAGCATATGTGGCATTTAGTCAAATGTATATGAATATGTATTTATGGCCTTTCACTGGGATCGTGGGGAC,0.194
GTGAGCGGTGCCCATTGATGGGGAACTAAGACACCTTAGATAGGTTTTTTAGAGTTTAGTTTTGAAATATTTTGATAGCTAAACTTTCTTTTTCCAAATGAAATCATAGATGGGCACAATGTAAACAAAAATAATACAGCTCAGTATTAAGCAGAAAGTCCTTCATTGCTTGTGAAACCTGGAAATCAATTATTTCACACCCTTATGATTCTTAGAGACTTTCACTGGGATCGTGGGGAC,0.453
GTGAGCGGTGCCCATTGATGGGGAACCAAGGCTGCTCACCCACTTCTTTAACCATTCTTCAAAAAAGTGAGCTGTTGTTATTGAACTTTTTATTATTACTTAATTACAAGAAAAAACAAAGTAATCTACCAAAAAAATTATAGTGTTGAGAAAATGCCAAGGCTGTTCACCCACTTCTTTAACCATTCTTCAAATTTACCATATATATATTTTTTTGACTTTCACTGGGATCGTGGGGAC,-0.0035

# Series 3
# Target: Interferon regulatory factor 7, full length, phosphomimetic (IRF7, Homo sapiens, UniProt Q92985, residues 1-503, S471D/S472D/S475D/S476D/S477D/S483D/S484D/S487D)
# Sequence of UniProt Q92985 (whole entry, unmodified, looked up): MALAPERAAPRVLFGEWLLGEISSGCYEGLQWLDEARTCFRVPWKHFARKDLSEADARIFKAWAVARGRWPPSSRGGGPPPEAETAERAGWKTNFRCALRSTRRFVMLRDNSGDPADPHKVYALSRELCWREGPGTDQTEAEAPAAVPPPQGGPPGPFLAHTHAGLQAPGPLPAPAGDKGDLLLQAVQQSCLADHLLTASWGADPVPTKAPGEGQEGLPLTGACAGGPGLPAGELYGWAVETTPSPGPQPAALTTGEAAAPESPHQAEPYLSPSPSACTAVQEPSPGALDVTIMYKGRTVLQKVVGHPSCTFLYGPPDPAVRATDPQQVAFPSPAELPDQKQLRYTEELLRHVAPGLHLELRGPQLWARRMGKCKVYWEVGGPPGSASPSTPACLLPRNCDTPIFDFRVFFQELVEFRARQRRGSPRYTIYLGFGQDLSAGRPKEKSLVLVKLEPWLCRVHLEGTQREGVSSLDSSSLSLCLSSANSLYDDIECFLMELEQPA
# Technique: protein-binding microarray
# Molecule type: double-stranded DNA, one strand shown
# Medium: in vitro
# Concentration: 2200 nM top
# Setting: 60-bp whole probe
# Added: salmon DNA 0.4 mg/ml
# Baseline: random background probes
# Direction: higher = stronger binding
# All sequences stand within: GCCTAGCAC … GTCTTGATTCGCTTGACGCTGCTG
Strand,fitted relative affinity [z-score]
GACGGTTTCCTTATGCTGACGTGCTAG,2.59
TGTCATTTACATTTTAGTAGGTGCTAG,1.16
TTAGGGATCGGTTTCGGTTAGTGCTAG,5.64
GGAAGTATGACTCTGCCTCTGTGCTAG,0.16
GACGGACTGGTCACTGGGGACGTGCTA,-1.11
GACGAACTGAGACTGGAGTCGTGCTAG,0.01
GACGTACTGAGACTGGAGACGTGCTAG,0.14
TTTTTTTTTTGTATTTTTGAGTGCTAG,2.41
GACGGATTCGGGTATCGGGACGTGCTA,0.903
TTATGTTTCGGGTTTCGGTTAGTGCTA,10.1
TTAGGTTTCGACTACCGGTTAGTGCTA,3.28
TTAGGTTTTGACTTTCGGTTAGTGCTA,6.5
GAGATCATCCGTTTCTTCTAGTGCTAG,1.33
TTGGAACTGAGTATCGATTAGTGCTAG,0.0607
GACGGTTTCCTTAACCTGACGTGCTAG,1.52
TCAATCTTATGATATATAACTGTGCTA,0.00873
TTAGGTATCGCGACTGGGTTAGTGCTA,0.101

# Series 4
# Target: CCND2, cyclin fold, Cln2 fusion (human)
# Technique: yeast growth competition, sequencing
# Medium: yeast
# Setting: weak parent motif
# Baseline: not given
# Direction: higher = stronger binding
# Parent: CDC25A docking peptide (human); PPHRRRLLFACSP
Substitution,normalised enrichment score
A10M,0.262
P2Q,0.473
P2Y,0.147
R4P,-0.0571
R6A,0.00684
R5T,-0.0787
A10K,0.0621
R5S,-0.0271
F9S,0.501
P1L,0.0386
R5K,0.301
F9G,0.521
C11W,0.0953
L7P,-0.0567
H3I,0.19
C11E,0.315
R4Y,0.405
S12F,-0.0872
L8P,-0.0714

# A few entries again (series 4):
Substitution,normalised enrichment score
F9S,0.501
P1L,0.0386
R5K,0.301
F9G,0.521
C11W,0.0953
L7P,-0.0567
H3I,0.19
C11E,0.315
